Assay results gathered from unrelated publications.
Protocols differ between the studies behind these lines. “And” joins repeats or separate records; there may be more than shown. ± marks the error that the study gave.
folA: Dihydrofolate reductase (folA, Mycobacterium tuberculosis, UniProt P9WNX1)
UniProt P9WNX1, sequence (whole entry, looked up): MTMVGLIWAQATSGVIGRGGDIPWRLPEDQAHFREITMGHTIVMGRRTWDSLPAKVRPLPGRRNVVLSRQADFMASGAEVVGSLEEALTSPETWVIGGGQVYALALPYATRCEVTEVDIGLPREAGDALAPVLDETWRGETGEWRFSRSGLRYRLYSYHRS
Response regulator PhoP: Response regulator PhoP (Mycobacterium tuberculosis, UniProt P71814)
Polymerase acidic protein PA with PB1 subunit: Polymerase acidic protein, PA with PB1 subunit (Influenza A virus, UniProt P03433)
rep main protease: Replicase polyprotein 1ab, main protease (rep, Severe acute respiratory syndrome coronavirus 2, UniProt P0DTD1)
4'-phosphopantetheinyl transferase PptT: 4'-phosphopantetheinyl transferase PptT (Mycobacterium tuberculosis, UniProt O33336)
UniProt O33336, sequence (whole entry, looked up): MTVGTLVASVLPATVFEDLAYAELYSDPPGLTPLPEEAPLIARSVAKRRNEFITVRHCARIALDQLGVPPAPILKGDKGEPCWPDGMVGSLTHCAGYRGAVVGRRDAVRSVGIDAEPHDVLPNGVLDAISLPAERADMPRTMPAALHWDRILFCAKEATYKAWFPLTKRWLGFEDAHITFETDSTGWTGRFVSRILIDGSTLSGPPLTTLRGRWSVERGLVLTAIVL
eis: N-acetyltransferase Eis (eis, Mycobacterium tuberculosis, UniProt P9WFK7)
UniProt P9WFK7, sequence (whole entry, looked up): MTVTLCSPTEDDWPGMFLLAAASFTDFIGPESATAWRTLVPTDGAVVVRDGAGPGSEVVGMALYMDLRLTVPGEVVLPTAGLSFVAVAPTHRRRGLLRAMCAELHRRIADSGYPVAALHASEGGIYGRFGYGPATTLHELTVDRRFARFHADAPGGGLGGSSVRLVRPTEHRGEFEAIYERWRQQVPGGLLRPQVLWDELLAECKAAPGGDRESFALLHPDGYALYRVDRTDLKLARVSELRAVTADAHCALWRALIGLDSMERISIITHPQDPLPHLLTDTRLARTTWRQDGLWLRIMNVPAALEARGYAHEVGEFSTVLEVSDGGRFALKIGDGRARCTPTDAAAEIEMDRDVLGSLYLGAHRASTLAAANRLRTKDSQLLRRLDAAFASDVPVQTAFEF
NA: Neuraminidase (NA, Influenza A virus, UniProt P03482)
UniProt P03482, sequence (whole entry, looked up): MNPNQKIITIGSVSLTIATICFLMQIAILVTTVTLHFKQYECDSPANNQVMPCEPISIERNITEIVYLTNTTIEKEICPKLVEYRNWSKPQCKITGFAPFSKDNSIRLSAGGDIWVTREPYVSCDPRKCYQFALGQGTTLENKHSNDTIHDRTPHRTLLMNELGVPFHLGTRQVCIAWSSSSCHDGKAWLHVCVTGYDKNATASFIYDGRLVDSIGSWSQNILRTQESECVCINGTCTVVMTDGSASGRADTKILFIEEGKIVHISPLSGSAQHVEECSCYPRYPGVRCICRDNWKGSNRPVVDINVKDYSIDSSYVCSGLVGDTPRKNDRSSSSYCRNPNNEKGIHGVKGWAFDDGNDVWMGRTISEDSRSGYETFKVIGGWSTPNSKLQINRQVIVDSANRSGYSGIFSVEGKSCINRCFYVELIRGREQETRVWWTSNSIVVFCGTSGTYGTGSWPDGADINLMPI
prcB open-gate 20S proteasome: Proteasome subunit beta, open-gate 20S proteasome (prcB, Mycobacterium tuberculosis, UniProt P9WHT9)
UniProt P9WHT9, sequence (whole entry, looked up): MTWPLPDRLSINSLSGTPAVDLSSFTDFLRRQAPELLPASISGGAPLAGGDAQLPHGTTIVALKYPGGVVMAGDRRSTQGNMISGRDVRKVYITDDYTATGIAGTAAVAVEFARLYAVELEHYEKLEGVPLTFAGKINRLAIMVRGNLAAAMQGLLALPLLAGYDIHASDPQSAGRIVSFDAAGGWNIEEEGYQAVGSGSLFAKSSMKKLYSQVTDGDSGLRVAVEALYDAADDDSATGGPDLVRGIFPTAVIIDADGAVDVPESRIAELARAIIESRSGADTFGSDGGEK
UniProt P28063, sequence (whole entry, looked up): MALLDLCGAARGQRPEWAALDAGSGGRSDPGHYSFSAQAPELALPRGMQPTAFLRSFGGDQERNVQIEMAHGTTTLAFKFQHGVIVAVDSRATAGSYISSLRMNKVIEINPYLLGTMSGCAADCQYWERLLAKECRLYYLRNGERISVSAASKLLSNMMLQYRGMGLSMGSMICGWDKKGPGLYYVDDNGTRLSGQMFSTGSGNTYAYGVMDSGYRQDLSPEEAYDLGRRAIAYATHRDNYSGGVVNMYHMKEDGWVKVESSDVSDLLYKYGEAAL
UniProt P31652, sequence (whole entry, looked up): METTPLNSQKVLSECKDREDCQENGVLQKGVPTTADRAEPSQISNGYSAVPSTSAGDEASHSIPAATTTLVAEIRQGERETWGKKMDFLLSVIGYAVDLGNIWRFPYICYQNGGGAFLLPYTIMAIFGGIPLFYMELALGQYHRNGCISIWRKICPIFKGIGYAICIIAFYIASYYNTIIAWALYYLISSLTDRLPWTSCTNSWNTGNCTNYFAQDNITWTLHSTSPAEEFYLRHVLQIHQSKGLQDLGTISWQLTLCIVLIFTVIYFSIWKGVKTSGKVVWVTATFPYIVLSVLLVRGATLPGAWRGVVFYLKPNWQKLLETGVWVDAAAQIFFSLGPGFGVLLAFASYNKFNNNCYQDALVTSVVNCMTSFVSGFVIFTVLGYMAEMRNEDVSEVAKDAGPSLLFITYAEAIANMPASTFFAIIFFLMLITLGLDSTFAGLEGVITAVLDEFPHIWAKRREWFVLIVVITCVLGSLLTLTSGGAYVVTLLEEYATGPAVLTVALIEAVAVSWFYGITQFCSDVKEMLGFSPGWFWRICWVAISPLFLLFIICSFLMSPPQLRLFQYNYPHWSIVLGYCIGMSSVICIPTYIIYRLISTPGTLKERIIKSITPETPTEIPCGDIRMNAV
UniProt I6WXK4, sequence (whole entry, looked up): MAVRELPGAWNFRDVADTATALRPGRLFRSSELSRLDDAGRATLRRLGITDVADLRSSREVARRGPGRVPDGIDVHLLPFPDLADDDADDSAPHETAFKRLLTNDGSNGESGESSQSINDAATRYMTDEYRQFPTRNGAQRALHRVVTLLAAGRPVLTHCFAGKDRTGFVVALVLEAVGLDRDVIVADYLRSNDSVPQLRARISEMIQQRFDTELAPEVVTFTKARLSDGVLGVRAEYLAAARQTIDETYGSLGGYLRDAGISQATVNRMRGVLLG
UniProt O60656, sequence (whole entry, looked up): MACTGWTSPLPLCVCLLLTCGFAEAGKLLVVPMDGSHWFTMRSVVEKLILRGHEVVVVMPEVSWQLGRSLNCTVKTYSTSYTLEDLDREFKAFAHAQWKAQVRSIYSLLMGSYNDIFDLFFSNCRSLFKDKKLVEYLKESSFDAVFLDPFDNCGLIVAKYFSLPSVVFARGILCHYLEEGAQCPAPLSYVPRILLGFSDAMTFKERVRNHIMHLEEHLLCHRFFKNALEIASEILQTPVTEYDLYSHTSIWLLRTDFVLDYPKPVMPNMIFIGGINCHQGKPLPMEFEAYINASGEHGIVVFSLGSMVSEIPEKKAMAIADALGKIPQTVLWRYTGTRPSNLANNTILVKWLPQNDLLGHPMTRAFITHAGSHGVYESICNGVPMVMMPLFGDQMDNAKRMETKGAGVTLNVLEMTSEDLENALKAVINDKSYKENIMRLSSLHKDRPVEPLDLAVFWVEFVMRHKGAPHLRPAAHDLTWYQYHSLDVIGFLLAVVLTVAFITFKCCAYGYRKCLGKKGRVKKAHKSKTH
UniProt P33261, sequence (whole entry, looked up): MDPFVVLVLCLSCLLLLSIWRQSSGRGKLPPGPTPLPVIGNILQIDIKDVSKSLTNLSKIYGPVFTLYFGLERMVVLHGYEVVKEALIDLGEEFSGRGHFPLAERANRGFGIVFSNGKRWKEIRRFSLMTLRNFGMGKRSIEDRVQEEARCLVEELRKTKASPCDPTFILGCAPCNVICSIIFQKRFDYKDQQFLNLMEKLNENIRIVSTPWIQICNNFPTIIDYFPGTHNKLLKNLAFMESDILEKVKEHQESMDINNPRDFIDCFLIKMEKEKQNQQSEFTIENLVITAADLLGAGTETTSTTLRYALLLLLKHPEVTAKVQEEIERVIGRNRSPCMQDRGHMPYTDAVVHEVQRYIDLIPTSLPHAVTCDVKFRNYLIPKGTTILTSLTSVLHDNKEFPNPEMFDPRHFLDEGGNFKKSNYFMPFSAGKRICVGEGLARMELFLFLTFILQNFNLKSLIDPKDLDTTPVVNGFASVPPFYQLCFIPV
UniProt P9WIA1, sequence (whole entry, looked up): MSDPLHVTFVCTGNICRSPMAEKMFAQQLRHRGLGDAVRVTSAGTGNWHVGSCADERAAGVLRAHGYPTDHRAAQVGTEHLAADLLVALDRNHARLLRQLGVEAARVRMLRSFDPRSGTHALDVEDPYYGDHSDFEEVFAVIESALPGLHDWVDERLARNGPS
UniProt Q9H4M9, sequence (whole entry, looked up): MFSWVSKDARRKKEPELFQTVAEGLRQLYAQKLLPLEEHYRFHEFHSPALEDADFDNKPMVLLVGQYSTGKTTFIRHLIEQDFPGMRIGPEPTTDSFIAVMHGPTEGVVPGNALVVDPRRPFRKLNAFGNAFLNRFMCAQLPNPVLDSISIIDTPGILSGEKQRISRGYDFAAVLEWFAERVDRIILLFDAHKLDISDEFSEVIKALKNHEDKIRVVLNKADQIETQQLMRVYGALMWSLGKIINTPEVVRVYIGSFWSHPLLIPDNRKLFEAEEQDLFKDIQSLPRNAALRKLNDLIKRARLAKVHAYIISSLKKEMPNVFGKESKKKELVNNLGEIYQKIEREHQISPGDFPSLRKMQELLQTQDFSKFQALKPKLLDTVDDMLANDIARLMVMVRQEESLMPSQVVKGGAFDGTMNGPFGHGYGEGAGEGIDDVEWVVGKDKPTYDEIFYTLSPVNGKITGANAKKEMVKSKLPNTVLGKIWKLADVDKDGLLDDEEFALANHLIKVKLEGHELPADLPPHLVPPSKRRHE

SMILES	target	assay	system	conditions	IC50
COC(=O)[C@H](CCCNC(=O)OC(C)(C)C)NC(=O)c1ccc(NCc2ccc3nc(N)nc(N)c3c2Cl)cc1	folA	enzyme activity, inhibitor			0.0384 µM
O=S(=O)(O)c1ccc(-c2cnc(-c3ccc(-c4ncc(-c5ccc(S(=O)(=O)O)cc5)o4)cc3)o2)cc1	Response regulator PhoP	DNA binding, fluorescence polarization		with: 6-FAM DNA 10 nM	88 ± 1.2 µM
C#CCCNC(=O)[C@@H](NC(=O)N[C@H](C(=O)N[C@H]1/C=C/CCNC(=O)/C=C/[C@H](C(C)C)NC1=O)C(C)C)C(C)C	Proteasome subunit beta type-8 (Psmb8, Mus musculus, UniProt P28063)	inhibitor			0.0032 µM
Cc1cc(-c2ccccc2)nc2nc(-c3nc4sc5c(c4c(=O)o3)CCCCC5)nn12	Polymerase acidic protein PA with PB1 subunit	PA-PB1 interaction, inhibitor, ELISA			15 ± 5 µM
CC(C)C[C@H](NC(=O)CNC(=O)[C@@H](N)Cc1c[nH]c2ccccc12)C(=O)N1CCC[C@H]1C(=O)O	Dipeptidyl peptidase 4 (DPP4, Homo sapiens, UniProt P27487)				351 ± 8.3 µM
Cc1cc(-c2ccccc2)nc2nc(C(=O)Nc3sc4c(c3C(N)=O)CCCCC4)nn12	Polymerase acidic protein PA with PB1 subunit	PA-PB1 interaction, inhibitor, ELISA			28 ± 1 µM
O=C(Nc1nc2cc3c(cc2s1)OCCO3)C1CCN(S(=O)(=O)c2ccc3c(c2)CCC3)CC1	rep main protease	cell-based			145 ± 25 µM
N[C@@H](CCC(=O)N[C@@H](CS[Se]Cc1ccc(C(=O)Nc2cc(C(F)(F)F)c(Br)c(C(F)(F)F)c2)cc1)C(=O)NCC(=O)O)C(=O)O	Triple specificity protein phosphatase PtpB (ptpB, Mycobacterium tuberculosis, UniProt I6WXK4)	enzyme activity, inhibitor		with: glutathione 1 mM	> 100 µM
Cc1nc(=O)c2cc(CN(C)c3ccc(C(=O)N[C@H](CCc4nn[nH]n4)C(=O)O)s3)ccc2[nH]1	4'-phosphopantetheinyl transferase PptT	enzyme activity, inhibitor, fluorescence polarization		enzyme 100 nM	0.08 µM
NC1=NN=Cc2ccccc2[O][V](=[O])[O]1.c1cnc2c(c1)ccc1cccnc12	Low molecular weight protein-tyrosine phosphatase A (Mycobacterium tuberculosis, UniProt P9WIA1)	enzyme activity, inhibitor			2.69 ± 0.27 µM
O=C(Nc1nc2c(s1)CCN(Cc1ccccc1)C2)c1ccc2c(=O)n3c(nc2c1)CCCCC3	rep main protease	cell-based			59 ± 10 µM
CC(C)[N+](C)(C)CCc1c[nH]c2cccc(O)c12	Sodium-dependent serotonin transporter (Slc6a4, Rattus norvegicus, UniProt P31652)	transporter uptake, inhibitor, radiometric			0.31 µM
CCCCCc1cc(O)c2c(c1)OC(C)(C)C1CCC(C)=CC21 (single isomer, unassigned; (-))	UDP-glucuronosyltransferase 1A9 (UGT1A9, Homo sapiens, UniProt O60656)	enzyme activity, inhibitor	recombinant UGT1A9 microsomes from HEK293	pH 7.4, glucuronidation, with: acetaminophen	12 ± 3.7 µM
O=S(=O)(O)CCOCC1CSSCC(COCCS(=O)(=O)O)SS1 (centres unmarked)	Response regulator PhoP	DNA binding, fluorescence polarization		with: 6-FAM DNA 10 nM	29 ± 1.6 µM
Nc1nc(SCCCN2CCCCC2)nc2sc3c(c12)CCCCC3	eis	inhibitor			1.2 ± 0.1 µM
Cc1nc(=O)c2cc(CN(C)c3cccc(C(=O)N[C@@H](CCC(=O)O)C(=O)O)c3)ccc2[nH]1	4'-phosphopantetheinyl transferase PptT	enzyme activity, inhibitor, fluorescence polarization		enzyme 100 nM	0.09 µM
Nc1nc(SCCN2CCCC2)nc2sc3c(c12)CCCCC3	eis	inhibitor			6.6 ± 0.6 µM
CC(=O)OC/C=C/C1=CC2=C(CO1)C(=O)[C@](C)(O)[C@H](OC(=O)c1c(C)cc(O)cc1O)C2	NA		influenza A virus H3N2		46.5 ± 2.5 µM
Nc1nnc(-c2cc3c(ccc4ccccc43)oc2=O)s1	UvrABC system protein A (uvrA, Mycobacterium tuberculosis, UniProt P9WQK7)				~4 µM

SMILES	target	assay	system	conditions	IC50
Nc1nc(SCCN2CCCCC2)nc2sc3c(c12)CCCCC3	eis	inhibitor			7.6 ± 1.1 µM
Cc1cc(=O)oc2cc(OCCCCn3cc(COc4ccc(N5C(N)=NC(N)=NC56CCCCC6)cc4)nn3)ccc12	folA				0.63 µM and ~1 µM
Nc1nc(SCCN2CCCCC2)nc2sc3c(c12)CCC(c1ccccc1)C3 (centres unmarked)	eis	inhibitor			16 ± 2 µM
CC(=O)N[C@@H](Cc1ccc(O)cc1)C(=O)N[C@@H](CC(N)=O)C(=O)N1CCC[C@H]1C(=O)N[C@@H](Cc1ccccc1)C(=O)N[C@@H](CCC(=O)O)C(=O)N[C@@H](CCC(=O)O)C(=O)NCC(=O)NCC(N)=O	EH domain-containing protein 1 (Homo sapiens, UniProt Q9H4M9)	ligand displacement, FP			107 µM
O=C(NN=Cc1cc(O)c(O)cc1O)c1cc2ccccc2cc1O	4'-phosphopantetheinyl transferase PptT	enzyme activity, inhibitor, fluorescence polarization		enzyme 100 nM	6.8 µM and 7.9 µM
COC[C@H](NC(=O)[C@H](CC(=O)N1CCCC1)NC(=O)CCc1ccccc1)C(=O)NCc1cccc2ccccc12	prcB open-gate 20S proteasome	enzyme activity, inhibitor		with: LLVY substrate	0.016 ± 0.002 µM
O=C(Nc1nc2c(s1)CN(Cc1ccccc1)CC2)c1ccc2c(=O)n3c(nc2c1)CCCCC3	rep main protease	cell-based			40 ± 7 µM
Nc1nc(SCC(=O)NCCN2CCOCC2)nc2sc3c(c12)CCC(c1ccccc1)C3 (centres unmarked)	eis	inhibitor			16 ± 3 µM
CCCCCc1cc(O)c2c(c1)OC(C)(C)C1CCC(C)=CC21 (single isomer, unassigned; (-))	Cytochrome P450 2C19 (CYP2C19, Homo sapiens, UniProt P33261)	inhibitor	human, pooled liver microsomes	pH 7.4, with: omeprazole	0.21 ± 0.056 µM
Cc1nc(=O)c2cc(CN(C)c3cccc(C(=O)N4CCCS(=N)(=O)CC4)c3)ccc2[nH]1 (centres unmarked)	4'-phosphopantetheinyl transferase PptT	enzyme activity, inhibitor, fluorescence polarization		enzyme 100 nM	24 µM
Nc1nc(SCCN2CCCCC2)nc2sc3c(c12)CCCC3	eis	inhibitor			1.1 ± 0.1 µM
Cc1nc(=O)c2cc(CN(C)c3ccc(C(=O)NCc4cc(=O)[nH]c(=O)[nH]4)s3)ccc2[nH]1	4'-phosphopantetheinyl transferase PptT	enzyme activity, inhibitor, fluorescence polarization		enzyme 100 nM	0.53 µM
Cc1cc(O)cc(O)c1C(=O)O[C@@H]1CC2=C(COC(/C=C/CO)=C2)C(=O)[C@]1(C)O	NA		influenza A virus H3N2		261 µM and 244 µM
O=c1c2ccccc2[nH]c(=S)n1Cc1cccnc1	4'-phosphopantetheinyl transferase PptT	enzyme activity, inhibitor, fluorescence polarization		enzyme 100 nM	0.85 µM
CC1CCc2c(sc3nc(SCC(=O)NCCN4CCOCC4)nc(N)c23)C1 (centres unmarked)	eis	inhibitor			0.47 ± 0.08 µM
COC(=O)[C@H](CC(C)C)NC(=O)[C@@H]1CCCN1C(=O)[C@@H](NC(=O)[C@@H](NC(=O)c1cnccn1)C(C)C)C(C)C	Chaperone protein DnaK, with DnaJ2, GrpE (dnaK, Mycobacterium tuberculosis, UniProt P9WMJ9)				76 µM
CCC1CCc2c(sc3nc(SCC(=O)NCCN4CCOCC4)nc(N)c23)C1 (centres unmarked)	eis	inhibitor			19 ± 3 µM
CCOC(=O)CC[C@H](NC(=O)c1cccc(N(C)Cc2ccc3[nH]c(C)nc(=O)c3c2)c1)C(=O)OCC	4'-phosphopantetheinyl transferase PptT	enzyme activity, inhibitor, fluorescence polarization		enzyme 100 nM	> 50 µM
CCN(CC)C(=O)C[C@H](NC(=O)CCc1ccccc1)C(=O)N[C@@H](C)C(=O)NCc1cccc2ccccc12	prcB open-gate 20S proteasome	enzyme activity, inhibitor		with: LLVY substrate	0.041 ± 0.006 µM

Excerpt of the above:
SMILES	target	assay	system	conditions	IC50
Cc1nc(=O)c2cc(CN(C)c3cccc(C(=O)N4CCCS(=N)(=O)CC4)c3)ccc2[nH]1 (centres unmarked)	4'-phosphopantetheinyl transferase PptT	enzyme activity, inhibitor, fluorescence polarization		enzyme 100 nM	24 µM
Nc1nc(SCCN2CCCCC2)nc2sc3c(c12)CCCC3	eis	inhibitor			1.1 ± 0.1 µM
Cc1nc(=O)c2cc(CN(C)c3ccc(C(=O)NCc4cc(=O)[nH]c(=O)[nH]4)s3)ccc2[nH]1	4'-phosphopantetheinyl transferase PptT	enzyme activity, inhibitor, fluorescence polarization		enzyme 100 nM	0.53 µM
Cc1cc(O)cc(O)c1C(=O)O[C@@H]1CC2=C(COC(/C=C/CO)=C2)C(=O)[C@]1(C)O	NA		influenza A virus H3N2		261 µM and 244 µM
O=c1c2ccccc2[nH]c(=S)n1Cc1cccnc1	4'-phosphopantetheinyl transferase PptT	enzyme activity, inhibitor, fluorescence polarization		enzyme 100 nM	0.85 µM
CC1CCc2c(sc3nc(SCC(=O)NCCN4CCOCC4)nc(N)c23)C1 (centres unmarked)	eis	inhibitor			0.47 ± 0.08 µM
